Assay results of several laboratories.
± gives the spread as reported. Converted amounts (≈) assume the structure as drawn.

CC(C)=CCC[C@](C)(O[C@@H]1O[C@H](CO)[C@@H](O)[C@H](O)[C@H]1O)[C@H]1CC[C@]2(C)[C@@H]1[C@H](O)C[C@@H]1[C@@]3(C)CC[C@H](O[C@@H]4O[C@H](CO)[C@@H](O)[C@H](O)[C@H]4O[C@@H]4O[C@H](CO)[C@@H](O)[C@H](O)[C@H]4O)C(C)(C)[C@@H]3CC[C@]12C
AUC(0-36 h) (Sprague Dawley rat, male, plasma; oral, 42 mg/kg, in red ginseng extract): 13300 ± 4600 ng·h/mL

CCCSc1nc(N[C@@H]2C[C@H]2c2ccc(F)c(F)c2)c2nnn([C@@H]3C[C@H](OCCO)[C@@H](O)[C@H]3O)c2n1
AUC (male Wistar Han rats, plasma; oral, 20 mg/kg/day, week 52, carcinogenicity study): 24.7 µM·h

Cc1[nH]c(=O)c(CNC(=O)c2ccc(Br)nc2)c2c1CCCC2
kinetic solubility (U-HPLC; 20% DMSO in water): 239 µg/mL (≈ 635 µM)

O=C1COCCO1
lactone fraction (acidic solution): 1.4%

O=C(O)[C@H](c1ccccc1Cl)N1CCc2sccc2C1
deviation from nominal (HPLC-MS/MS; feline EDTA plasma; 48 h, 4 °C, storage stability): -7%

CC[C@H](C)[C@H](NC(=O)[C@H](Cc1ccccc1)NC(=O)[C@H](CCC(=O)O)NC(=O)[C@H](CCCCNC(=O)COCCOCCNC(=O)COCCOCCNC(=O)CC[C@H](NC(=O)CCCCCCCCCCCCCCCCC(=O)O)C(=O)O)NC(=O)[C@H](C)NC(=O)[C@H](C)NC(=O)[C@H](CCC(N)=O)NC(=O)CNC(=O)[C@H](CCC(=O)O)NC(=O)[C@H](CC(C)C)NC(=O)[C@H](Cc1ccc(O)cc1)NC(=O)[C@H](CO)NC(=O)[C@H](CO)NC(=O)[C@@H](NC(=O)[C@H](CC(=O)O)NC(=O)[C@H](CO)NC(=O)[C@@H](NC(=O)[C@H](Cc1ccccc1)NC(=O)[C@@H](NC(=O)CNC(=O)[C@H](CCC(=O)O)NC(=O)C(C)(C)NC(=O)[C@@H](N)Cc1cnc[nH]1)[C@@H](C)O)[C@@H](C)O)C(C)C)C(=O)N[C@@H](C)C(=O)N[C@@H](Cc1c[nH]c2ccccc12)C(=O)N[C@@H](CC(C)C)C(=O)N[C@H](C(=O)N[C@@H](CCCNC(=N)N)C(=O)NCC(=O)N[C@@H](CCCNC(=N)N)C(=O)NCC(=O)O)C(C)C
average steady-state concentration (human lowest body weight; 0.5 mg once weekly, 39.7-60.2 kg): 21.8 nmol/L

COc1cc2c(cc1OC)[C@@H]1Cc3ccc(OC)c(OC)c3CN1CC2
measured concentration (rat plasma QC sample; 2 ng/mL nominal, 24 h, 23 °C, low QC level storage stability): 2 ± 0.11 ng/mL

CCc1ccc(Cc2ccc3c(c2)[C@]2(OC3)O[C@H](CO)[C@@H](O)[C@H](O)[C@H]2O)cc1
tissue/plasma ratio (Wistar rat, male, kidney; oral, dose not given, 8 h; baseline: kidney over plasma concentration): 492 ± 101

CN1CC[C@@H](NC(=O)Nc2ccc(C#N)cc2)C[C@@H]1c1nc2ccccc2[nH]1
unbound Cmax (human, normal hepatic function, fasted, plasma; oral, 100 mg single dose, geometric mean, fu × total): 72.8 ng/mL

Cn1c(-c2ccc(C(N)=O)cc2F)nnc1C(C)(C)Oc1c(F)cc(Cl)cc1F
Tmax range (healthy young Japanese subjects, plasma; oral, 10 mg once daily, day 18, 14 days dosing): 1 to 4 h

COc1cccc2c1C(=O)c1c(O)c3c(c(O)c1C2=O)C[C@@](O)(C(=O)CO)C[C@@H]3O[C@H]1C[C@H](N)[C@H](O)[C@H](C)O1
terminal half-life (mouse, E0771 tumour-bearing, tumor; intravenous, 92 µmol/kg): 53 h

COC(=O)N[C@H](C(=O)N[C@@H](Cc1ccccc1)[C@@H](O)CN(Cc1ccc(-c2ccccn2)cc1)NC(=O)[C@@H](NC(=O)OC)C(C)(C)C)C(C)(C)C
Vd/F (population PK model; pregnant women, postpartum; oral, median, added: with tenofovir): 129 L

CC[C@H](C)[C@@H]1NC(=O)[C@H](Cc2ccc(O)cc2)NC(=O)[C@@H](N)CSSC[C@@H](C(=O)N2CCC[C@H]2C(=O)N[C@@H](CC(C)C)C(=O)NCC(N)=O)NC(=O)[C@H](CC(N)=O)NC(=O)[C@H](CCC(N)=O)NC1=O
half-life (microdialysis, radioimmunoassay; knock-out male mice lacking compound, hippocampus extracellular fluid; intraperitoneal, 12 µg total, time to half of Cmax): 0.313 ± 0.0317 h

CC(C)C[C@H](NC(=O)[C@H](CC(C)C)NC(=O)[C@@H](Cc1c[nH]c2ccccc12)NC(=O)[C@H](Cc1ccccc1)NC(=O)[C@@H](NC(=O)[C@@H](N)CCCCN)[C@H](c1ccccc1)c1c[nH]c2ccccc12)C(N)=O
HPLC retention (RP-HPLC Kinetex Biphenyl; acetonitrile/water TFA gradient): 44.6 %B

C[C@](N)(Cc1ccc(O)c(O)c1)C(=O)O
solubility (supercritical carbon dioxide; 5 h, 343 K, 21 MPa, density 678.9 kg/m3): 244 µg/mL (≈ 1150 µM)

Oc1ccc2c3c(cnc2c1)-c1ccc(C(F)(F)F)cc1O[C@@H]3c1ccc(OCCN2CC(CF)C2)cc1
faecal radioactivity excretion (human, healthy female, fasted, faeces; oral, 400 mg): 61.8%

COc1cc(OC)c(/C=C/S(=O)(=O)Cc2ccc(OC)c(NCC(=O)O)c2)c(OC)c1
Vss/F (cancer patients, phase I, plasma; oral, 700 mg twice daily, day 21 cycle 1): 473 ± 138 L

Cc1ccc(NC(=O)c2ccc(CN3CCN(C)CC3)cc2)cc1Nc1nccc(-c2cncc(-c3oncc3C)c2)n1
dose-normalised Cmax (Parkinson's disease patients, plasma; oral, 50.0 mg once daily, day 7, 7-day dosing, mean): 51.2 ng/mL/mg

COc1cc(/C=C/C(=O)CC(=O)/C=C/c2ccc(O)c(OC)c2)ccc1O
brain uptake ratio (I-125 label; C57BL/6J mouse, cerebral cortex; intranasal vs intraperitoneal, 10 µg/mouse IN, 100 µg/mouse IP, 12 h; baseline: intranasal over intraperitoneal): 3.9

CC1=C2C[C@H]3[C@@H](CC[C@@H]4C[C@H](NS(C)(=O)=O)CC[C@@]43C)[C@@H]2CC[C@@]2(C1)O[C@@H]1C[C@H](C)CN[C@H]1[C@H]2C
Tmax (patients, plasma; oral, 200 mg single, day -7, cycle 1): 4 h

COc1ccc2cc3[n+](cc2c1OC)CCc1cc2c(cc1-3)OCO2
measured concentration (rat plasma QC sample; 640 ng/mL nominal, 24 h, 23 °C, high QC level storage stability): 638 ± 19.9 ng/mL

CC(C)(/C=C(\C#N)C(=O)N1CCC[C@@H](n2nc(-c3ccc(Oc4ccccc4)cc3F)c3c(N)ncnc32)C1)N1CCN(C2COC2)CC1
placebo-corrected ΔHR (Holter ECG; healthy human; oral, 400 mg, 6 h post-dose, lowest value; baseline: placebo): -1.9 bpm

C[C@@H](O)[C@H]1C(=O)N2C(C(=O)O)=C(S[C@@H]3CN[C@H](C(=O)N(C)C)C3)[C@H](C)[C@H]12
time above MIC (microdialysis; pig, Danish Landrace, cortical bone; intravenous, 1000 mg over 10 min, 450 min dosing interval, added: 0.25 µg/mL MIC; baseline: dosing interval): 39%

C[C@]12CC[C@@H]3c4ccc(O)cc4CC[C@H]3[C@@H]1C[C@@H](O)[C@@H]2O
maximum serum concentration (GC-MS; breast cancer women on NSAI, serum; vaginal, 0.03 mg, 6 h, day 0): 0 ng/mL

CCN(CC)CCNC(=O)c1c(C)[nH]c(/C=C2\C(=O)Nc3ccc(F)cc32)c1C
minimum trough plasma concentration (human, plasma; oral, 15 mg/m2, day 14): 11.9 ng/mL

Nc1ccn([C@@H]2O[C@H](CO)[C@@H](O)C2(F)F)c(=O)n1
measured concentration (THU-treated rat plasma; 125.00 ng/mL, -80 to 20 °C, three freeze-thaw cycles, mid QC): 134 ± 11.6 ng/mL

COc1cc(O)c(C(=O)[C@@H]2[C@H](CC=C(C)C)C(C)=CC[C@H]2c2ccccc2)c(O)c1
unchanged excreted in faeces (male Wistar rat; oral, 45 mg/kg, 0 to 72 h; baseline: dose): ~22%

CSc1cc(C)nc(SC)c1NC(=O)CN1CCN(CCSc2nc3ccccc3[nH]2)CC1
concentration (mouse Crl:CD1 (ICR) female, cerebrum; intranasal repeated, 32.4 µg in 0.01 N HCl, 45 min): 2.1 ng/g

Cc1cccc(C)c1OCC(=O)N[C@@H](Cc1ccccc1)[C@@H](O)C[C@H](Cc1ccccc1)NC(=O)[C@H](C(C)C)N1CCCNC1=O
particle permeability (modified PAMPA Franz cell; phosphate buffer with HPMCAS; stock 12 mg/mL, 3 h, 25 °C, 454 nm particles, 300 rpm, added: 3% BSA receiver): 2.1 ± 0.1 ×10⁻⁶ cm/s

CCCC[C@@H]1NC(=O)[C@@H](NC(=O)[C@H](CCC(=O)O)NC(=O)CNC(=O)CN2CCN(CC(=O)O)CCN(CC(=O)O)CCN(CC(=O)O)CC2)CCCCNC(=O)C[C@@H](C(N)=O)NC(=O)[C@H](C(C)C)NC(=O)[C@@H]2CCCN2C(=O)[C@H](CCCNC(=N)N)NC(=O)CNC(=O)[C@H](Cc2c[nH]c3ccccc23)NC(=O)[C@H](CCCNC(=N)N)NC(=O)[C@@H](Cc2ccccc2)NC(=O)[C@H](Cc2c[nH]cn2)NC(=O)[C@H](CCC(=O)O)NC1=O [indium-111 labelled]
tissue uptake (C57 mice, B16/F10 lung metastatic melanoma, pancreas; intravenous, 0.037 MBq, 2 h): 0.05 ± 0.01 %ID/g

CN(C)C(=N)N=C(N)N
hepatocyte necrosis score (Sprague-Dawley rat, male, liver; oral, 100 mg/kg, 24 h, single low dose; direction not given): 0

COc1cccc(-c2ccc(NC(=O)C3=C(C(=O)O)CCC3)c(F)c2)c1
AUC(0-24) accumulation ratio (male healthy human, plasma; oral, 50 mg daily, day 13-14, pre-dosed; baseline: day 0-1): 1.58

COc1ccc(-c2oc3c(OC)c(OC)c(OC)c(OC)c3c(=O)c2OC)cc1OC
tissue to peel content ratio (C57BL/6 mouse, male, small intestine; oral, 1% w/w in diet, 6 weeks, orange peel extract diet; baseline: content in orange peel): 4.29%

C[N+](C)(C)CCc1ccc(Oc2ccc(-c3noc(-c4ccc(O)cc4)n3)cc2)cc1.[I-]
unchanged drug in faeces (male Sprague Dawley rats; oral, 30 mg/kg, 0 to 48 h; baseline: dose): 1.5%

COc1ccc2[nH]cc(CCNC(C)=O)c2c1
concentration (wild-type FVB/N lactating female mice, milk; intravenous, 10 mg/kg, 30 min): 12000 ± 4610 ng/mL

CO[C@@H]1[C@H](O)[C@@H](CO)O[C@H]1n1ccc(=O)[nH]c1=O
terminal half-life (UHPLC-MS; male CD-1 mice, plasma; intravenous, 1 mg/kg, from 4 h postdose): 4.98 h

CCCCC[N+]1(CC(=O)OC2CCCCCCCCCCC2)CCCCC1.[I-]
half-life (metabolic stability; human, liver microsomes; 1 µM, pH 7.4): < 0.0333 h

Cc1nc2cccc(OCC(C)(C)C(=O)NC(C)C)c2c(N)c1C(=O)O
Tmax (female Sprague-Dawley rat, plasma; dietary, 100 mg/kg/day, day 7): 0 h

O=C1CN(/N=C/c2ccc(-c3ccc([N+](=O)[O-])cc3)o2)C(O)=N1
hepatocyte vacuolization score (Sprague-Dawley rat, male, liver; oral, 1000 mg/kg, 24 h, single high dose; direction not given): 0

CCCC[C@H](NC(C)=O)C(=O)N[C@H]1CCC(=O)NC[C@@H](C(=O)N[C@@H](Cc2c[nH]c3ccccc23)C(N)=O)NC(=O)[C@H](CCCNC(=N)N)NC(=O)[C@@H](Cc2ccccc2)NC(=O)[C@H](Cc2c[nH]cn2)NC1=O
AUC(0-inf) (female rat, plasma; subcutaneous, 5 mg/kg/day, multiple doses, once daily): 4300 ng·h/mL

CNCc1ccc(-c2[nH]c3cc(F)cc4c3c2CCNC4=O)cc1
half-life (human, fed high-fat meal, plasma; oral, 600 mg, single dose, median): 14.4 h

CC[C@H]1OC(=O)[C@H](C)[C@@H](O[C@H]2C[C@@](C)(OC)[C@@H](O)[C@H](C)O2)[C@H](C)[C@@H](O[C@@H]2O[C@H](C)C[C@H](N(C)C)[C@H]2O)[C@](C)(OC)C[C@@H](C)C(=O)[C@H](C)[C@@H](O)[C@]1(C)O
discontinuation due to adverse events (healthy human subjects; oral, dose not given, twice daily): 5.3%

COc1ccc(-c2cc(=O)c3c(O)c(OC)c(OC)c(OC)c3o2)cc1OC
tissue to peel content ratio (C57BL/6 mouse, male, small intestine; oral, 1% w/w in diet, 6 weeks, orange peel extract diet; baseline: content in orange peel): 17.6%

CC(C)=CCC[C@](C)(O[C@@H]1O[C@H](CO[C@@H]2O[C@H](CO)[C@@H](O)[C@H](O)[C@H]2O)[C@@H](O)[C@H](O)[C@H]1O)[C@H]1CC[C@]2(C)[C@@H]1[C@H](O)C[C@@H]1[C@@]3(C)CC[C@H](O[C@@H]4O[C@H](CO)[C@@H](O)[C@H](O)[C@H]4O[C@@H]4O[C@H](CO)[C@@H](O)[C@H](O)[C@H]4O)C(C)(C)[C@@H]3CC[C@]12C
AUC(0-36 h) (Sprague Dawley rat, male, plasma; oral, 86 mg/kg, in white ginseng extract): 108000 ± 19500 ng·h/mL

For quick reference, copied from above:
CC(C)C[C@H](NC(=O)[C@H](CC(C)C)NC(=O)[C@@H](Cc1c[nH]c2ccccc12)NC(=O)[C@H](Cc1ccccc1)NC(=O)[C@@H](NC(=O)[C@@H](N)CCCCN)[C@H](c1ccccc1)c1c[nH]c2ccccc12)C(N)=O
HPLC retention (RP-HPLC Kinetex Biphenyl; acetonitrile/water TFA gradient): 44.6 %B

C[C@](N)(Cc1ccc(O)c(O)c1)C(=O)O
solubility (supercritical carbon dioxide; 5 h, 343 K, 21 MPa, density 678.9 kg/m3): 244 µg/mL (≈ 1150 µM)

Cn1c(-c2ccc(C(N)=O)cc2F)nnc1C(C)(C)Oc1c(F)cc(Cl)cc1F
Tmax range (healthy young Japanese subjects, plasma; oral, 10 mg once daily, day 18, 14 days dosing): 1 to 4 h
